Published values collected from several papers.
Each line is one published result; not all experiments were run side by side. ± gives the spread as reported.
TDP1: Tyrosyl-DNA phosphodiesterase 1 (TDP1, Homo sapiens, UniProt Q9NUW8)
Chain of UniProt Q9NUW8 (whole entry, looked up): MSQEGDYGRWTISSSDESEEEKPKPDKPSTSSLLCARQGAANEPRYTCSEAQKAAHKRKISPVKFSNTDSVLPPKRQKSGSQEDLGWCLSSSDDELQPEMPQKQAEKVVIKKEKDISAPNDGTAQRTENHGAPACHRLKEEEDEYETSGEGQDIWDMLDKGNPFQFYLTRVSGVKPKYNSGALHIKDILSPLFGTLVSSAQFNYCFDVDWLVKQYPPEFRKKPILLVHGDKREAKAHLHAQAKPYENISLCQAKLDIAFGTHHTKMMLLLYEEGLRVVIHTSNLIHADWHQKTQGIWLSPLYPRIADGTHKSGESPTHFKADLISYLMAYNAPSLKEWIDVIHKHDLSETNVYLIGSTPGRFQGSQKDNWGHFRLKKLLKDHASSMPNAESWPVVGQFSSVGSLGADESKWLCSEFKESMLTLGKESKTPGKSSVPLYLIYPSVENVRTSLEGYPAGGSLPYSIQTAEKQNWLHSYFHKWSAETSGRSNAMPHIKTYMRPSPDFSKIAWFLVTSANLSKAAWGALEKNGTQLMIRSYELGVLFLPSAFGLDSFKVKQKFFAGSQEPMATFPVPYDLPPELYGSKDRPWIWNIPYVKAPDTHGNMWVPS

With `CNS(=O)(=O)Nc1nccc(Cc2c(C)c3ccc(Oc4ncccc4F)cc3oc2=O)c1F` the IC50 was 7.22 nM (MV4-11; cell viability; 7 days).
With `CC(C)c1ccc(N(C)c2ccc3c(c2)OCC[C@H]3CNc2cnccc2C(=O)O)cc1` the IC50 was 4.02 nM (MV4-11; cell viability, CellTiter-Glo; 7 days).
For `COc1cccc(F)c1C=NOCc1ccc(-c2nc3cc(-c4ccccc4)ccn3c2Nc2ccc(C(=O)O)cc2)cc1` (mixture of isomers), the inhibition was 67.4% (TDP1; enzyme activity, inhibitor; 100 µM, unpurified compound).
`COc1cc(C(C)(C)O)c(OC)cc1-c1cc(C(C)=O)n2ccccc12` gave an IC50 of 2350 nM (MV4-11; cell growth or viability, ATP luminescence).
The IC50 of `CCN(C(=O)c1cc(F)ccc1Oc1nncnc1N1CCC2(C1)CN(C(CCCN(C)CCOC)C(C)C)C2)C(C)C` (centres unmarked) is reported as 1190 ± 148 nM (MV4-11; QuantiGene, refers to: MEIS1 mRNA).
For `COc1cc(-c2cn(C)c(=O)c3cnccc23)cc(OC)c1Cn1ccnc1`, the IC50 was 6500 nM (MV4-11; cell growth or viability, ATP luminescence).
`N#CCOc1ccc(Br)cc1C=NOCc1ccc(-c2nc3cc(-c4ccccc4)ccn3c2Nc2ccc(C(=O)O)cc2)cc1` (mixture of isomers) gave an inhibition of 62.3% (TDP1; enzyme activity, inhibitor; 100 µM, unpurified compound).
The IC50 of `Cc1sc2c(c1C)C(c1ccc(Cl)cc1)=N[C@@H](CC(=O)NCCN(C)CCCCNC(=O)CCCCOc1cccc3c1C(=O)N([C@H]1CCC(=O)NC1=O)C3=O)c1nnc(C)n1-2` is reported as 100 nM (MV4-11; cell growth or viability, CCK-8; 72 h).
`O=c1c(-c2cnn(-c3ccccc3)c2)c(C(F)(F)F)oc2c(O)c(O)ccc12` has an EC50 of ~13000 nM (MV4-11; apoptosis, annexin V flow cytometry).
`COc1cc(-c2cc(C(C)=O)n3ccccc23)cc(OC)c1CN(C)C` gave an IC50 of 2290 nM (MV4-11; cell growth or viability, ATP luminescence).
`CCOc1cncc(-c2ccc(NC(=O)C3(c4ccnc(NS(=O)(=O)C5CC5)n4)CCOCC3)nc2)n1` has an IC50 of 104 nM (MV4-11; cell proliferation, CellTiter-Glo; 72 h).

For quick reference, copied from above:
`COc1cc(-c2cc(C(C)=O)n3ccccc23)cc(OC)c1CN(C)C` gave an IC50 of 2290 nM (MV4-11; cell growth or viability, ATP luminescence).
`O=c1c(-c2cnn(-c3ccccc3)c2)c(C(F)(F)F)oc2c(O)c(O)ccc12` has an EC50 of ~13000 nM (MV4-11; apoptosis, annexin V flow cytometry).
